# Measured values of several laboratories.
# Each line is one published result; not all experiments were run side by side. Numbers after ± are the reported error.
# Cell line: HEK293
Compound,test,setting,IC50 [µM]
NCCCC[C@@H](NC(=O)[C@H](Cc1c[nH]cn1)NC(=O)[C@H](CO)NC(=O)[C@H](Cc1c[nH]c2ccccc12)NC(=O)[C@H](Cc1c[nH]cn1)NC(=O)[C@@H]1CCC(=O)N1)C(=O)N[C@@H](Cc1c[nH]c2ccccc12)C(=O)N[C@@H](Cc1ccc(O)cc1)C(=O)N1CCC[C@H]1C(=O)NCC(N)=O,"cell growth or viability, SRB",,0.0065
COc1c(Oc2c(O)c(OC)c(OC)c3c2ccc2cc(O)ccc23)cc2c(c1OC)-c1ccc(O)cc1CC2,"cell growth or viability, CCK-8",24 h,8.14
CCOC(=O)C(C)(COP(=O)(OC)OCCCCCCNC(=O)c1cc2ccccc2oc1=O)C(=O)CSC(C)=O (stereo not drawn),"K-Ras G12V nanoclustering, FRET",24 h,1.65 ± 0.95
CCc1ccc(C(c2c(C)nn(-c3ccccc3)c2O)c2c(C)nn(-c3ccccc3)c2O)cc1,"cell growth or viability, MTT",48 h,> 40
CC(C)c1cccc(C(C)C)c1-n1c[n+](-c2c(C(C)C)cccc2C(C)C)c2c1-c1cccc3cccc-2c13.[Cl][Pd-]([Cl])[CH2]C=Cc1ccccc1,"cell growth or viability, MTT",72 h,2.3
Cc1nn(-c2ccccc2)c(O)c1C(c1cccs1)c1c(C)nn(-c2ccccc2)c1O,"cell growth or viability, MTT",48 h,> 40
O=S(=O)([O][Pt]([O]S(=O)(=O)C(F)(F)F)([PH](c1ccccc1)(c1ccccc1)c1ccc[cH-]1)[PH](c1ccccc1)(c1ccccc1)c1ccc[cH-]1)C(F)(F)F.[Fe+2],"cell growth, MTT",24 h,65.3
Cc1nn(-c2ccccc2)c(O)c1C(c1ccc([N+](=O)[O-])cc1)c1c(C)nn(-c2ccccc2)c1O,"cell growth or viability, MTT",48 h,> 40
C#CCCCC[C@H](C)C[C@@H](C)C(=O)N(C)[C@@H](C)C(=O)N1CCC[C@H]1C(=O)N(C)[C@H](C(=O)N(C)[C@H](C(=O)OC)C(C)C)C(C)C,"cell growth or viability, SRB",,97
CC(C)C[C@H](NC(=O)[C@@H](CCCNC(=N)N)NC(=O)[C@H](Cc1c[nH]cn1)NC(=O)[C@H](CO)NC(=O)[C@H](Cc1c[nH]c2ccccc12)NC(=O)[C@H](Cc1c[nH]cn1)NC(=O)[C@@H]1CCC(=O)N1)C(=O)N[C@@H](CCCNC(=N)N)C(=O)N1CCC[C@H]1C(=O)NCC(N)=O,"cell growth or viability, SRB",,0.0359
Cc1cc(C)c(-n2c[n+](-c3c(C)cc(C)cc3C)c3c2-c2cccc4cccc-3c24)c(C)c1.[Cl][Pd-]([Cl])[CH2]C=Cc1ccccc1,"cell growth or viability, MTT",72 h,1.1
COC(=O)[C@H](C(C)C)N(C)C(=O)[C@H](C(C)C)N(C)C(=O)[C@@H]1CCCN1C(=O)[C@H](C)N(C)C(=O)OC(C)(C)C,"cell growth or viability, SRB",,369
COc1c(O)c(-c2c(O)c(OC)c(OC)c3c2ccc2cc(O)ccc23)c2c(c1OC)-c1ccc(O)cc1CC2,"cell growth or viability, CCK-8",24 h,18.5
COC(=O)[C@@H](NC(=O)[C@@H](NC(=O)[C@@H](NC(=O)[C@@H]1CCCN1C(=O)[C@H](C)NC(=O)OC(C)(C)C)C(C)C)C(C)C)C(C)C,"cell growth or viability, SRB",,412
Cc1nn(-c2ccccc2)c(O)c1C(c1ccccc1[N+](=O)[O-])c1c(C)nn(-c2ccccc2)c1O,"cell growth or viability, MTT",48 h,> 40

# Excerpt of the above:
Compound,test,setting,IC50 [µM]
NCCCC[C@@H](NC(=O)[C@H](Cc1c[nH]cn1)NC(=O)[C@H](CO)NC(=O)[C@H](Cc1c[nH]c2ccccc12)NC(=O)[C@H](Cc1c[nH]cn1)NC(=O)[C@@H]1CCC(=O)N1)C(=O)N[C@@H](Cc1c[nH]c2ccccc12)C(=O)N[C@@H](Cc1ccc(O)cc1)C(=O)N1CCC[C@H]1C(=O)NCC(N)=O,"cell growth or viability, SRB",,0.0065
COc1c(Oc2c(O)c(OC)c(OC)c3c2ccc2cc(O)ccc23)cc2c(c1OC)-c1ccc(O)cc1CC2,"cell growth or viability, CCK-8",24 h,8.14
